Experimental data of several laboratories.
Every numbered part comes from another study and shows a few of its results, in no order.
Sequence of UniProt O15111 (whole entry, looked up): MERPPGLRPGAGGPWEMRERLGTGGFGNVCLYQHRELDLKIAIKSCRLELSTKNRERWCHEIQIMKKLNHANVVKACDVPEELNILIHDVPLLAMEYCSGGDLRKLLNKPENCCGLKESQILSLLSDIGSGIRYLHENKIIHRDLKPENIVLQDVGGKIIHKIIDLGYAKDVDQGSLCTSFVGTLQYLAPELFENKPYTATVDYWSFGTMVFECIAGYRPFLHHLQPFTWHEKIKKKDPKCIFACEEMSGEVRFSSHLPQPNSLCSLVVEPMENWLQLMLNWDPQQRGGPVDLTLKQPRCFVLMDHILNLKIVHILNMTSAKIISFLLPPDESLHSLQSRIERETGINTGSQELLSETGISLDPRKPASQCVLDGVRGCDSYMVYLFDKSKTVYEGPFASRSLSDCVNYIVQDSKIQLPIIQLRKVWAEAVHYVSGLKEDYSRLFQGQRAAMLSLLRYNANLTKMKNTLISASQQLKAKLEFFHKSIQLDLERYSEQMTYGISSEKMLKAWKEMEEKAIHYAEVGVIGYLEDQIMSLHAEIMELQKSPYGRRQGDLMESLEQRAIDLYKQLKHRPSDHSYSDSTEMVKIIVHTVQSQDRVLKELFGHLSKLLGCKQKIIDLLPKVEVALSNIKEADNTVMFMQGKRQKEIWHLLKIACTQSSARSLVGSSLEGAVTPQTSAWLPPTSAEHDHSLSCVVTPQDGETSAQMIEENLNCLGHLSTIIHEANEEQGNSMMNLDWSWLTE
Sequence of UniProt P54762 (whole entry, looked up): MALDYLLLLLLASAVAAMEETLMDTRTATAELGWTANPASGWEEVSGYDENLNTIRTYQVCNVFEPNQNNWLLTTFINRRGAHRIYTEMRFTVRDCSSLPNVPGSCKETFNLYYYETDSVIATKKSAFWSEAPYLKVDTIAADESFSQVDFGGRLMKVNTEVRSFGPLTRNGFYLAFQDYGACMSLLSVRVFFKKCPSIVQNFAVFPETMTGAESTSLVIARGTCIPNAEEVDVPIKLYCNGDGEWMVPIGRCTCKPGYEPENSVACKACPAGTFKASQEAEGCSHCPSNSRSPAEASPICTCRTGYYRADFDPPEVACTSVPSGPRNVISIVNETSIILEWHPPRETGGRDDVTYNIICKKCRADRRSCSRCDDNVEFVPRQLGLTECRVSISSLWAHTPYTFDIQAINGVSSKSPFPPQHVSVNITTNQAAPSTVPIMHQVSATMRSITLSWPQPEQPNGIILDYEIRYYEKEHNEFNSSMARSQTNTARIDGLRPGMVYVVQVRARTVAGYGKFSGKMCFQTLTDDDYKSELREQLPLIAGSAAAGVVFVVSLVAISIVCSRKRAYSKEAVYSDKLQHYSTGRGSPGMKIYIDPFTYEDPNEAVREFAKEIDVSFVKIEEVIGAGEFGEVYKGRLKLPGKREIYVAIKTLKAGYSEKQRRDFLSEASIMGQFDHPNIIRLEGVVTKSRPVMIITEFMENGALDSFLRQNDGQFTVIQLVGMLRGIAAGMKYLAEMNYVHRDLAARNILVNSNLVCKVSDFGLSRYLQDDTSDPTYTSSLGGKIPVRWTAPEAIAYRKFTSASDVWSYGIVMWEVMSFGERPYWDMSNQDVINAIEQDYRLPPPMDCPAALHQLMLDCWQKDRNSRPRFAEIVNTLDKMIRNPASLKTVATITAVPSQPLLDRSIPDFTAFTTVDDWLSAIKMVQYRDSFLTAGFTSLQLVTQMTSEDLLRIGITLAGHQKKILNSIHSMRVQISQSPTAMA
Sequence of UniProt Q9HCP0 (whole entry, looked up): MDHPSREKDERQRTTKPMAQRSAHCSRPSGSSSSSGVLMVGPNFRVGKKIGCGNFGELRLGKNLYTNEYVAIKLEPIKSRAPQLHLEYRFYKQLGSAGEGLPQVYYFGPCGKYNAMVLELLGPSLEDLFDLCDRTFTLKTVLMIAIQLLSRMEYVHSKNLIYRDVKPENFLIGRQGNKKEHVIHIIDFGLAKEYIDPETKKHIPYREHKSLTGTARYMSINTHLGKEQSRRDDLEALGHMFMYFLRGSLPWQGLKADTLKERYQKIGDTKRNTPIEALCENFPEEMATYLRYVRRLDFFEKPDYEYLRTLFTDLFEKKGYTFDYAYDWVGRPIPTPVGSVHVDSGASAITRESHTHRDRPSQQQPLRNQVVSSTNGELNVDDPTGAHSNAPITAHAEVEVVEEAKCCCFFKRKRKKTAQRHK

Block 1 — technique: universal PBM; form: double-stranded DNA, one strand shown; medium: in vitro; concentration: not given; reading: higher = stronger binding
Target: Sal-like protein 4, full length isoform B (SALL4, Homo sapiens, UniProt Q9UJQ4-2, residues 1-616)
Setting: 8-mer, flanks averaged, mean of replicates
Strand	E-score
GATTGTGA	0.15
ATAAGAGG	0.0814
TCCGAGAA	0.0265
AGGACCGG	-0.378
CCAATTAG	0.105
ACAGTCTG	-0.0686
ATACTAAC	0.109
GTGTGCTA	-0.0247

Block 2 — technique: RNA Bind-n-Seq; form: RNA; medium: in vitro; concentration: not given; baseline: input RNA pool; reading: higher = stronger binding
Target: RING finger protein unkempt homolog, zinc fingers 1-6, GST-SBP tag (UNK, Homo sapiens, UniProt Q9C0B0, residues 30-357)
Setting: RNA with constant flanks, human-mouse chimeric sites, ends assumed
Constant ends, left off below: GGGAGUUCUACAGUCCGACGAUC … CAACAGAGGAUUGAGCAUCA
Construct (chain): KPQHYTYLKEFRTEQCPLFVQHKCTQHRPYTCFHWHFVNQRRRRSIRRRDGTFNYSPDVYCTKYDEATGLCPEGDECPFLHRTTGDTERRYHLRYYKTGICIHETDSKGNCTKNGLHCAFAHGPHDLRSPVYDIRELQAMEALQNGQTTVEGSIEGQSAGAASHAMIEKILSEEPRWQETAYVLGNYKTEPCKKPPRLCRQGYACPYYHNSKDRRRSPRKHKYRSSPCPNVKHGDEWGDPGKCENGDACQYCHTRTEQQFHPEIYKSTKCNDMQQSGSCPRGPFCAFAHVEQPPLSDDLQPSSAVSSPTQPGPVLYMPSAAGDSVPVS
Strand	bound/input enrichment [ratio]
UGGCGCCUGCGCUCCCCACUCGUGUUUGUAUUUUUAUUUUUAUAAGAUACAUGUAUUUACAAUUGAGCUUUUGUUACAUAAUGCUGAAAUGCUACUGCAAUAUUAUGAAAAUGUUUCAAU	0.225
AACGUGGAGUUGAGUUCCUUGGCCCGGCUUCCCAGCUUAAAUAAACUCCGGAAGUUGGAACUUAGUGACAAUAUAAUUUCUGGAGGCUUGGAAGUCCUGGCAGAGAAAUGUCCAAAUCUU	0.146
UUUGUAUUCAUGUUAAGCACACGUGCUGGUGGUCUGGGCAUCAAUCUUGCAACUGCUGAUGUAGUCAUUUUAUAUGACUCAGAUUGGAAUCCGCAAGUAGAUCUUCAGGCUAUGGACCGU	0.195
CUGAAAAACACAGAUAUCAAAGUUGUUGACUUUGGAAGUGCAACGUAUGACGACGAACAUCAUAGUACUUUGGUGUCUACCCGGCACUACAGAGCUCCCGAGGUCAUUUUGGCUUUAGGU	0.197
AUAGAUGAAAUUGAUGUAGAUCAGGAAGGAAUUGCUGAAAUGAUCCUGGAUGAAAAUGCUAUAGCUCAGGUCCCACGCCCUGGCACAUCUUUGAAGCUCCCUGGCACUAACCAAACAGGA	0.478
ACUCUUGACUCUUUCCAUUCUCGUCCCUUCCCUCUUGAUAUUCAAGGCCAUGAAUCCCAAAAUAACAGUCUUAGUGGCUAGCACCCACCCAAACUGAGAAUAAAUCCACCCCAGUGUCUC	0.498
GGACAUCUGUCAAAUUGUUAUGUUCCUGUGAAACAAGUGAGCACUUUGAUACACUUCAUCUGCUUGUACAUCUGUAUGAUAGAGAAAUGUAAAUAUGAAUAUAUUUACAAUGUGUCACUU	0.0744
AACUUUGUGCAUCGGUUUCCCUUUGUAGCUGUUUCAAUUGGCUUCCUUGUGAAUAAAGAGAUGGAGUUUGGAGUUGUGUACAGCUGUGUGGAAGAUAAGAUGUACACCGGCAGGAAAGGG	0.458

Block 3 — technique: protein binding microarray; form: double-stranded DNA, one strand shown; medium: in vitro; concentration: not given; baseline: not given; reading: higher = stronger binding
Target: Histone acetyltransferase KAT6A, winged helix 1, GST fusion (KAT6A, Homo sapiens, UniProt Q92794, residues 1-85)
Setting: 8-mer, flanks averaged, mean of 2 arrays, mostly near background
Residues (chain): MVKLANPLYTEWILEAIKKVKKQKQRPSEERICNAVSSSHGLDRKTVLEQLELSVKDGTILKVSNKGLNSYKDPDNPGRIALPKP
Strand	E-score
AAATCTGT	-0.202
TCTCTCAA	-0.099
CACGACTC	-0.26
AGAGTCAT	-0.269
ACCTGCAG	-0.306
CCGAGCAG	0.0487
ATTCGGGA	-0.0572
AGGCCGAT	0.0886

Mixed results — read-out: cell-free assay; technique: competition with immobilised ligand; concentration: 1 µM
Compound	target	remaining binding [%]
Nc1cnc(N2CCc3cc(S(=O)(=O)Nc4c(F)cc(Cl)cc4F)cc(N4CCCC4=O)c32)nc1	CHUK (Homo sapiens, UniProt O15111)	100
CCCOc1ccc([C@H]2[C@H](C(=O)O)[C@@H](c3ccc4c(c3)OCO4)CN2CC(=O)Nc2c(CC)cccc2CC)cc1	CSNK1G1 (Homo sapiens, UniProt Q9HCP0)	100
COc1ccc2cc(OCC3(C(=O)O)CN(C(=O)c4ccc(F)cc4)C3)ccc2c1	EPHB1 (Homo sapiens, UniProt P54762)	100

For quick reference, copied from above (block 1):
Strand	E-score
ATAAGAGG	0.0814
ACAGTCTG	-0.0686
